Assay results pooled from the literature.
Numbered parts are unrelated; each lists some results of a single study.

Sample 1
Target: Replicase polyprotein 1ab, nsp13 helicase (rep, Severe acute respiratory syndrome coronavirus 2, UniProt P0DTD1)
Action: inhibitor
Concentration: 20 µM
Measurement: inhibition
CC[N+](CC)(CC)CCOc1cccc(OCC[N+](CC)(CC)CC)c1OCC[N+](CC)(CC)CC: 5.14%
O=C1NC(=O)c2c1c1c3ccccc3n3c1c1c2c2ccccc2n1[C@H]1CC[C@@H]3O1: -0.67%
NCCC(=O)N[C@@H](Cc1c[nH]cn1)C(=O)O: 29%
COc1cc2c(cc1OC)-c1c/c(=N\c3c(C)cc(C)cc3C)n(C)c(=O)n1CC2: 5.01%
C[C@@H]([C@@H](O)c1ccc(O)cc1)N1CCC(O)(c2ccccc2)CC1: 8.04%
CCCN(CC1CC1)c1nc(C)nc(Nc2c(Cl)cc(Cl)cc2Cl)c1Cl: 10.4%
O=C(Cn1ccnc1[N+](=O)[O-])NCCO: 3.94%
O=C(Nc1cc2cc[nH]c2cn1)c1ccccc1: 8.26%
CC[C@H](CC[C@@H](C)[C@H]1CC[C@H]2[C@@H]3CC=C4C[C@@H](O)CC[C@]4(C)[C@H]3CC[C@]12C)C(C)C: 11.7%
Clc1ccc([C@]23CNC[C@H]2C3)cc1Cl: 6.09%
NCCCCCNCC12CC3CC(CC(C3)C1)C2: 8.55%
C=C1C(=O)O[C@@H]2C[C@@]3(C)CCC[C@H](C)C3=C[C@H]12: 8.94%
CC[C@]1(O)C[C@@H]2CN(CCc3c([nH]c4ccccc34)[C@@](C(=O)OC)(c3cc4c(cc3OC)N(C)[C@H]3[C@@](O)(C(N)=O)[C@H](O)[C@]5(CC)C=CCN6CC[C@]43[C@@H]65)C2)C1: 0.09%
CC[C@H](C(=O)N1CCCC[C@H]1C(=O)O[C@H](CCc1ccc(OC)c(OC)c1)c1cccc(OCC(=O)NCCNC(=O)COc2cccc([C@@H](CCc3ccc(OC)c(OC)c3)OC(=O)[C@@H]3CCCCN3C(=O)[C@@H](CC)c3cc(OC)c(OC)c(OC)c3)c2)c1)c1cc(OC)c(OC)c(OC)c1: 6.93%
CN(C)Cc1ccc(S(=O)(=O)n2ccc(/C=C/C(=O)NO)c2)cc1: -3.84%
CC1(C)CC[C@]2(C(=O)O)CC[C@]3(C)[C@H](C(=O)C=C4[C@@]5(C)C=C(C#N)C(=O)C(C)(C)[C@@H]5CC[C@]43C)[C@@H]2C1: 39.2%
O=C(O)CN1C(=O)c2cccc3cccc(c23)C1=O: 7.47%
CCCCCCCCCCCCCCCC(=O)OC[C@H](COP(=O)([O-])OCC[N+](C)(C)C)OC(=O)CCCCCCCCCCCCCCC: 9.72%
COC(=O)c1c(-c2cc(OC)c(OC)c(OC)c2)c2ccnc(OCc3ncccn3)c2c(=O)n1Cc1ccnc(C)c1: 4.62%
CNC(C)CC1CCCCC1 (stereo not shown): 4.24%
CN1CCN(CCc2ccc(Cl)c(Cl)c2)CC1: 3.37%
CCCN1CCC[C@@H]2Cc3nc(N)ncc3C[C@H]21: 1.82%
CCCCN(Cc1ccc(C(=O)NO)cc1)C(=O)Nc1ccccc1: 5.72%
O=C(NC1CCN(CCCCC2(C(=O)NCC(F)(F)F)c3ccccc3-c3ccccc32)CC1)c1ccccc1-c1ccc(C(F)(F)F)cc1: 5.82%
Cn1c(N2CCCCS2(=O)=O)nc(C(=O)NCc2ccc(F)cc2)c(O)c1=O: 5.39%

Sample 2
Target: Replicase polyprotein 1ab, main protease (rep, Severe acute respiratory syndrome coronavirus 2, UniProt P0DTD1)
Read-out: enzyme activity
Action: inhibitor
Concentration: 20 µM
Notes: hit confirmation
Measurement: inhibition
COc1ccc2[nH]c([S@@+]([O-])Cc3ncc(C)c(OC)c3C)nc2c1: 99.1%
CC/C=C\C/C=C\C/C=C/C/C=C\C/C=C\C/C=C\CCC(=O)OCC: -3.2%
COc1ccc([N+](=O)[O-])c(S(=O)(=O)c2ccc(Cl)cc2)n1: 94.1%
CC1(C)C(=O)N=C2C1=C(O)C(=O)c1ccccc12: 36%

Sample 3
Target: Ras GTPase-activating protein-binding protein 1, C-terminal RGG region (G3BP1, Homo sapiens, UniProt Q13283)
Chain of UniProt Q13283 (whole entry, looked up): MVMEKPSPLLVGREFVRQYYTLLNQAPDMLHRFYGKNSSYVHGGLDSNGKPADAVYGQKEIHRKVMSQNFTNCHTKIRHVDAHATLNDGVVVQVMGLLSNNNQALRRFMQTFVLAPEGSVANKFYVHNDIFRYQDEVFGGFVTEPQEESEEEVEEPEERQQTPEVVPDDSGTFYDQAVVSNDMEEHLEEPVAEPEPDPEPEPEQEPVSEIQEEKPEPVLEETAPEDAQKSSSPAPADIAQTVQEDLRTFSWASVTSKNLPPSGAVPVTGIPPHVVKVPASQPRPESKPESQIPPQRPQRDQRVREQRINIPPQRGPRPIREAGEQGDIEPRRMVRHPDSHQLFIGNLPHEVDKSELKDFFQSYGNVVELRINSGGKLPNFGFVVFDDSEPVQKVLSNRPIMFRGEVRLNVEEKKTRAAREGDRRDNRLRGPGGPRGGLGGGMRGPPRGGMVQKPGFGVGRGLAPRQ
Method: RNA Bind-n-Seq
Molecule type: RNA
Sample: in vitro
Concentration: 1 µM
Notes: whole 134-nt RNA, ends assumed
Added: 150 mM KCl
Relative to: input library
Reading: higher = stronger binding
Measurement: log2 enrichment
All sequences stand within: GGGAGUUCUACAGUCCGACGAUC … UGGAAUUCUCGGGUGUCAAGG
AAGUCCUGUGCUACACAUCGUAUGUACCGAAUCGGGUUUUUUUGGGAAAGGGUGGGAAAGUAUUAUGUUACGCCGUUCGGAUCUGCACUU: 0.869
AAGUCCUGUGCUACACAUCGUAUGUACCGAAUCGGGUUUGGGUGGGAAAAAAAGGGAAAGUAUUAUGUUACGCCGUUCGGAUCUGCACUU: 0.302
UGGCCCUGGUGGCAUGCGGGGAGGAAGAGGUGGCCUCAUGGAUCGGGGUGGUCCCGGUGGAAUGUUCAGAGGUGGCCGUGGUGGAGACAG: 2.08
AGUCCUGUGCUACACAUCGUAUGUACCGAAUCGGGGAAAAGGGAAAAGGGGAAAAGGGAAAGUAUUAUGUUACGCCGUUCGGAUCUGCAC: 0.392
UCAGAAGGUCUUUUAAGUCUGACCACCCAGCUUGUCAAGGAAAAACUCUCCACCUGUGAAGCAGAGGACAUCGCCACCUAUGAGCAGAAU: 0.358
AGUCCUGUGCUACACAUCGUAUGUACCGAAUCGGGGAGGGGUUUUUUUGGGGUGGGGAAAGUAUUAUGUUACGCCGUUCGGAUCUGCACU: 1.63
AAGUCCUGUGCUACACAUCGUAUGUACCGAAUCGGCCCCGGGGCCCCGGCCCCGGGGAAAGUAUUAUGUUACGCCGUUCGGAUCUGCACU: -2.83
UGGCCCUGGUGGCAUGCGGGGAGGAAGAGGUGGCCUCAUGGAUCGUGGUGGUCCCGGUGGGAUGUUCAGAGGUGGCCGUGGUGGAGACAG: 2.54

Sample 4
Target: Histone acetyltransferase KAT6A, winged helix 1, GST fusion (KAT6A, Homo sapiens, UniProt Q92794, residues 1-85)
Method: protein binding microarray
Molecule type: double-stranded DNA, one strand shown
Sample: in vitro
Concentration: not given
Notes: 8-mer, flanks averaged, mean of 2 arrays, mostly near background
Relative to: not given
Reading: higher = stronger binding
Measurement: E-score
Construct (chain): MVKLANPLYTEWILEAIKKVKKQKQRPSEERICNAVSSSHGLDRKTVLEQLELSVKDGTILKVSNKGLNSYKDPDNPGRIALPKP
AACCTAGT: -0.117
TCAGTGCA: -0.213
GCACCATA: -0.0594
AGCCCTTC: -0.0742
GTACAGAA: -0.1
ATGACACG: 0.00521
CCTACATC: 0.0157
GTATACCA: -0.0929

Sample 5
Target: Cyclic AMP-dependent transcription factor ATF-1 (ATF1, Homo sapiens, UniProt P18846, residues 1-271, full length assumed)
Method: protein-binding microarray
Molecule type: double-stranded DNA, one strand shown
Sample: in vitro
Concentration: not given
Notes: k-mer, scored over probes, only values ≥0.25
Reading: higher = stronger binding
Measurement: E-score
Residues (chain): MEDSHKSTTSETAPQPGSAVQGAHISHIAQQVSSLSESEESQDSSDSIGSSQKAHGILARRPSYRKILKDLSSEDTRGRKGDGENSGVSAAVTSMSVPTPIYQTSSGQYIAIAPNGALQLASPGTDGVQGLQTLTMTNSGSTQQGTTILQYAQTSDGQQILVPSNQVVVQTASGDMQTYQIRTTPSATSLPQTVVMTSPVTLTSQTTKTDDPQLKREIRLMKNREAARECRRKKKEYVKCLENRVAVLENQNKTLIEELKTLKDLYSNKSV
CATCGTC: 0.255
CGTAACG: 0.309
GTCGTAA: 0.266
ATTGACG: 0.363

Sample 6
Cell line: HEK-293T/ACE2
Concentration: concentration not given
Time: 16 (unit not given)
Relative to: vehicle
Measurement: viability
NC(=O)OCC(COC(N)=O)c1ccccc1: 101%
N#CC1(c2ccc(NC(=O)c3cccnc3NCc3ccncc3)cc2)CCCC1: 81.4%
O=C1CC[C@@]2(O)[C@H]3Cc4ccc(O)c5c4[C@@]2(CCN3CC2CC2)[C@H]1O5: 101%
